{"data": "Measured values from different studies", "note": "Lines come from different studies, so protocols differ. Several values in a cell are separate wells, animals, samples, runs or records. Numbers after ± are the reported error."}
{"SMILES": "Cc1cc(C(=O)NC(C)(C)COc2cccc3c2C(N)=NS(=O)(=O)N3)cc(C)n1", "system": "Sprague-Dawley rat, plasma", "conditions": "oral, 10 mg/kg, vehicle 1% methylcellulose", "how to read": "reference: female over male", "measurement": "Cmax ratio", "result": 1.32}
{"SMILES": "CCCCc1ccc(-c2ccc(C#N)cc2)cc1", "system": "Sprague-Dawley rat, female, placenta", "conditions": "1000 ng/mL in perfusate, 50 (unit not given), middle dose, mixture of 21 LCMs", "measurement": "median placental accumulation", "result": "8.24 ng/g"}
{"SMILES": "O=C(O)CCC(=O)O.[2H]C([2H])([2H])Oc1cc(C)c2[nH]ccc2c1CN1CC[C@@H](C2CC2)C[C@H]1c1ccc(C(=O)O)cc1", "system": "human, plasma", "conditions": "50 mg twice daily, day 10, multiple ascending dose, median", "measurement": "Tmax", "result": "2 h"}
{"SMILES": "N#Cc1ccc2c(c1)[C@H]1CCCN(C(=O)c3ccc4[nH]cnc4c3)[C@H]1C2", "system": "human", "conditions": "240 mg, day 15", "measurement": "mean ACTH level", "result": "7.9 pmol/L"}
{"SMILES": "CCN(CC)Cc1ccc2cc(COC(=O)Nc3ccc(C(=O)NO)cc3)ccc2c1", "system": "rat plasma", "conditions": "5 ng/mL, 3 h, room temperature", "how to read": "reference: nominal concentration", "measurement": "stability relative error", "result": "96.7%"}
{"SMILES": "N[C@@H]1c2ccccc2OC12CCN(c1cnc3c(N4CCCc5ncccc54)n[nH]c3n1)CC2", "system": "advanced metastatic solid tumour patients, plasma", "conditions": "oral, 60 mg once daily, cycle 1 day 1, geometric mean", "measurement": "AUC(0-tau)", "result": "4410 ng·h/mL"}
{"SMILES": "COc1ncc(-c2nc3c(n2C(C)C)[C@H](c2ccc(Cl)cc2)N(c2cc(Cl)cn(C)c2=O)C3=O)c(OC)n1", "system": "human patients, plasma", "conditions": "oral, 25 mg, 0-24 h, low-dose arm, cycle 1 day 1", "measurement": "AUC(0-t) geometric mean", "result": "2670 ng·h/mL"}
{"SMILES": "CCCCC[C@H](O)CC[C@@H]1[C@H]2Cc3cccc(OCC(=O)O)c3C[C@H]2C[C@H]1O", "test": "LC-MS/MS", "system": "Japanese IPAH/HPAH patients, plasma", "conditions": "inhaled, 54 µg", "measurement": "geometric mean Cmax", "result": "0.93 ng/mL"}
{"SMILES": "N#CCC1CCN(c2nc(Nc3ccc(N4CCC(O)CC4)cc3)c3c(=O)[nH]ncc3n2)CC1", "system": "human, plasma", "conditions": "oral, 40 mg once daily, day 15", "measurement": "t1/2", "result": "10.7 h"}
{"SMILES": "CNC(=O)c1ccc(-c2cnc3ncc(Cc4ccc5ncccc5c4)n3n2)cc1F", "system": "Japanese patients", "conditions": "oral, 400 mg, any grade", "measurement": "Neutrophil count decreased dose reduction/interruption", "result": "2%"}
{"SMILES": "Nc1ncc(-c2ccncc2)nc1Nc1ccc2[nH]ccc2c1", "system": "mouse C57BL male, urine", "conditions": "intravenous, 5 mg/kg", "measurement": "unchanged dose excreted in urine", "result": "< 0.01%"}
{"SMILES": "CNC(=O)c1ccc(-c2cnc3ncc(Cc4ccc5ncccc5c4)n3n2)cc1F", "test": "refers to: Dyspepsia, all grades", "system": "cancer patients", "conditions": "oral, 600 mg twice daily, other expansion cohort, any causality", "measurement": "patients with adverse event", "result": "17%"}
{"SMILES": "O=C(Nc1nc2cccc(-c3ccc(CN4CCS(=O)(=O)CC4)cc3)n2n1)C1CC1", "test": "refers to: hypercholesterolaemia", "system": "human rheumatoid arthritis patients", "conditions": "oral, 200 mg once daily, 4 weeks, regardless of relatedness", "measurement": "treatment-emergent adverse events", "result": "0%"}
{"SMILES": "Cn1nccc1-c1nc(N2CCC(c3ccccn3)C2)c2ccccc2n1 (stereo not drawn)", "system": "Japanese Pharmacopoeia disintegration test solution 2", "conditions": "pH 6.8", "measurement": "kinetic solubility", "result": "3 µg/mL"}
{"SMILES": "CCc1c(-c2ccccc2)c(-c2ccccc2)nn1-c1ccccc1-c1cccc(OCC(=O)O)c1", "system": "Sprague-Dawley rat, large intestine", "conditions": "oral, 10 mg/kg, 4 h", "measurement": "concentration", "result": "1520 ng/g and 1950 ng/g"}
{"SMILES": "N#Cc1ccc(-c2cnc3ccc(-c4ccc(C(=O)N5CCOCC5)cc4)cn23)cc1", "system": "healthy volunteers", "conditions": "oral, 10 mg, fasted, time-averaged", "measurement": "placebo-corrected heart rate change", "result": "-2 bpm"}
{"SMILES": "Cc1nc(-c2ccc(OCC(C)C)c(C#N)c2)sc1C(=O)O", "system": "human, plasma", "conditions": "oral, 10 mg, with: verinurad 5 mg", "how to read": "reference: test over reference", "measurement": "geometric mean ratio AUC(0-24)", "result": 97.6}
{"SMILES": "NC(=O)c1cnc2[nH]ccc2c1N[C@@H]1[C@@H]2CC3C[C@H]1C[C@@](O)(C3)C2", "system": "healthy human volunteers, plasma", "conditions": "oral, population PK model estimate", "measurement": "intercompartmental clearance", "result": "9.19 L/h"}
{"SMILES": "CCCOc1ccc(NC(=O)CN2CCN(C)CC2)cc1-c1nc(CC)c(CC)c(=O)[nH]1", "system": "healthy Chinese men", "conditions": "10 mg, with: alcohol 0.5 g/kg", "how to read": "reference: compound with placebo alcohol", "measurement": "AUEC(0-4 h) diastolic BP difference", "result": "-8.25 h·mmHg"}
{"SMILES": "Cc1c(-c2ccc(N3CCc4cccc(C(=O)Nc5nc6ccccc6s5)c4C3)nc2C(=O)O)cnn1CC12CC3(C)CC(C)(C1)CC(OCCNCC[C@H](O)CO)(C3)C2", "system": "anaesthetized male beagle dog", "conditions": "iv infusion, 0.3 mg/kg/min, 120 min", "measurement": "plasma concentration", "result": "1.35 ng/mL"}
{"SMILES": "Cc1nc2ncnn2c(O)c1NS(=O)(=O)c1ccc(Br)cc1", "system": "aqueous buffer", "conditions": "pH 7.4", "measurement": "thermodynamic solubility", "result": "6270 µM"}
{"SMILES": "OC[C@H]1OC(O)[C@H]([18F])[C@@H](O)[C@@H]1O (stereo partly drawn)", "test": "PET", "system": "mouse, MM.1S xenograft, tumour", "conditions": "60 min post-injection", "measurement": "SUVmean", "result": "0.53 ± 0.02 g/mL"}
{"SMILES": "COc1cc(Nc2ncc3c(n2)-c2ccc(Cl)cc2C(c2c(F)cccc2OC)=NC3)ccc1C(=O)O", "test": "refers to: acneiform rash, grade 3", "system": "cancer patients, phase 1/2", "conditions": "oral, dose not given, with: pembrolizumab", "measurement": "patients with adverse event", "result": "4%"}
{"SMILES": "CN(CCCN1CCN(C(=O)CN2CCN(CC(=O)[O-])CCN(CC(=O)[O-])CCN(CC(=O)[O-])CC2)CC1)c1ccc2nccc(C(=O)NCC(=O)N3CC(F)(F)C[C@H]3C#N)c2c1.[68Ga+3]", "system": "mouse HT-1080-hFAP and HT-1080 xenografts, HT-1080 wild-type tumour", "conditions": "intravenous, 500 pmol, 4 h", "measurement": "uptake", "result": "0.3 ± 0.1 %IA/g"}
{"SMILES": "NS(=O)(=O)c1ccc(CNc2nc(Nc3cccc(NC(=O)N4CCCC4)c3)ncc2Br)cc1", "test": "PAMPA", "system": "PBS", "conditions": "5 h, pH 7.4", "measurement": "PAMPA permeability", "result": "not detected"}
{"SMILES": "COc1cc2c3c(n(CCCN4CCOCC4)c(=O)c2cc1OC)-c1cc2c(cc1C3=O)OCO2", "system": "beagle dog, female, plasma", "conditions": "oral, 1720 mg/m^2, gelatin capsule", "measurement": "Vz/F", "result": "9200 L/m² and 19900 L/m²"}
{"SMILES": "Cn1cc(Nc2nccc(-c3ccc4c(c3)CN(C3COC3)CC[C@H]4NC(=O)c3cn(C(C)(C)C)nn3)n2)cn1", "system": "human, whole blood", "conditions": "50 mg twice daily, day 7", "how to read": "reference: pre-dose baseline", "measurement": "NKT cell count change", "result": "40.5%"}
{"SMILES": "C[C@@H]1COCCN1c1cc(C2([S@](C)(=N)=O)CC2)nc(-c2cc[nH]c3nccc2-3)n1", "system": "Japanese advanced solid tumour patients", "conditions": "oral, 160 mg twice daily, CTCAE grade ≥3", "measurement": "Fatigue incidence", "result": "0%"}
{"SMILES": "Cc1ccc(NS(=O)(=O)c2cc(C(=O)Nc3ccccc3C(=O)N3CCOCC3)ccc2Cl)c(C)c1", "system": "aqueous buffer", "conditions": "pH 7.4", "measurement": "thermodynamic solubility", "result": "< 7.14 µM"}
{"SMILES": "c1coc(Nc2ncnc3ccc(-c4cncc(N5CCOCC5)n4)cc23)n1", "system": "0.1 M phosphate buffer", "conditions": "pH 7.4, 25 °C", "measurement": "thermodynamic solubility", "result": "19 µM"}
{"SMILES": "O=C(O)c1cc(O)c(O)c(O)c1", "system": "rat, plasma", "conditions": "oral, 1000 mg/kg extract, possible metabolite or extract component", "measurement": "MRT", "result": "6.08 ± 0.44 h"}
{"SMILES": "CC(C)(C(=O)N1CCOc2c(C#N)cncc2C1)C(F)F", "test": "refers to: Ecchymosis", "system": "human", "conditions": "oral, 10 mg once daily, 14 days, multiple ascending dose", "measurement": "subjects with adverse event", "result": "12.5%"}
{"SMILES": "C[C@@H](NC(=O)N1C(=O)[C@H](Cc2ccnc(N)c2)[C@H]1C(=O)O)C1CCCCC1", "test": "UPLC-MS/MS", "system": "healthy adult Chinese volunteers, plasma", "conditions": "continuous intravenous infusion, 0.6 mg/kg/h, day 6 of 5-day infusion, mean", "measurement": "Vd", "result": "0.544 L/kg"}
{"SMILES": "C=CC(=O)Nc1cc(Nc2nccc(-c3cn(C)c4ccccc34)n2)c(OC)cc1N(C)CCN(C)C", "test": "refers to: ALT increased", "system": "EGFR-mutant MET-altered NSCLC patients", "conditions": "oral, dose not given, AE grade ≥3", "measurement": "incidence of treatment-related AEs", "result": "0%"}
{"SMILES": "O=C1NCCc2nc(OCc3cccc(F)c3)ccc21", "test": "refers to: Piloerection", "system": "Sprague-Dawley rat male", "conditions": "oral, 100 mg/kg, 4 h", "how to read": "direction not given", "measurement": "Irwin test score", "result": 0}
{"SMILES": "CC[C@H]1CC[C@H](c2ccc(-c3ccc(F)c(F)c3)cc2)CC1", "system": "rat, placenta", "conditions": "1000 ng/mL in perfusate, middle dose, mixture of 21 LCMs", "measurement": "median placental accumulation", "result": "8.07 ng/g"}
{"SMILES": "CCc1cc(C(=O)NC)c2nccc(N3CCc4c(cc(Cn5ccnc5)cc4-c4cn(C)nc4C(F)(F)F)C3=O)c2c1", "system": "Sprague Dawley rat", "conditions": "oral, 100 mg/kg twice daily, day 2, 7-day toxicology study", "measurement": "body weight", "result": "219 ± 5.5 g"}
{"SMILES": "CC(C)C[C@H](NC(=O)[C@H](CC(C)C)NC(=O)[C@H](Cc1c[nH]c2ccccc12)NC(=O)[C@H](CCC(=O)O)NC(=O)[C@@H](NC(=O)[C@H](Cc1ccccc1)NC(=O)[C@H](CCC(=O)O)NC(=O)[C@H](CCCCNC(=O)COCCOCCNC(=O)COCCOCCNC(=O)CC[C@H](NC(=O)CCCCCCCCCCCCCCCCCCC(=O)O)C(=O)O)NC(=O)[C@H](C)NC(=O)[C@H](CCCCN)NC(=O)[C@H](CCCCN)NC(=O)[C@H](CCC(=O)O)NC(=O)[C@H](CC(=O)O)NC(=O)[C@H](CC(C)C)NC(=O)[C@H](Cc1ccc(O)cc1)NC(=O)[C@H](CCCCN)NC(=O)[C@H](CO)NC(=O)[C@H](Cc1ccc(O)cc1)NC(=O)[C@H](CC(=O)O)NC(=O)[C@H](CO)NC(=O)[C@@H](NC(=O)[C@H](Cc1ccccc1)NC(=O)[C@@H](NC(=O)CNC(=O)[C@H](CCC(N)=O)NC(=O)C(C)(C)NC(=O)[C@@H](N)Cc1c[nH]cn1)[C@@H](C)O)[C@@H](C)O)C(C)C)C(=O)N[C@@H](CCC(=O)O)C(=O)NCC(=O)NCC(=O)N1CCC[C@H]1C(=O)N[C@@H](CO)C(=O)N[C@@H](CO)C(=O)NCC(N)=O", "system": "human, plasma", "conditions": "subcutaneous, 16 mg once weekly, week 20, geometric mean", "measurement": "MRT", "result": "291 h"}
{"SMILES": "C=CC(=O)Nc1cc(Nc2nccc(-c3cn(C)c4ccccc34)n2)c(OC)cc1N(C)CCN(C)C", "test": "storage stability", "system": "human dried blood spots", "conditions": "72 h, -80 °C, medium QC level", "measurement": "recovery", "result": "90.1%"}
{"SMILES": "C1=C/COCc2cc(ccc2OCCN2CCCC2)Nc2nccc(n2)-c2cccc(c2)COC/1", "system": "rat plasma", "conditions": "2 ng/mL, 24 h, 4 °C", "how to read": "reference: nominal concentration", "measurement": "stability relative error", "result": "-2.26%"}
{"SMILES": "CC(C)C[C@H](NC(=O)CNC(=O)c1cc(Cl)ccc1Cl)B(O)O", "test": "refers to: Diarrhoea", "system": "human newly diagnosed multiple myeloma", "conditions": "oral, dose not given, maintenance, grade 3, onset cycle 17 or later", "measurement": "treatment-emergent adverse events", "result": "6%"}
{"SMILES": "O=C1CCc2ccc(OCCCCN3CCN(c4cccc(Cl)c4Cl)CC3)cc2N1", "test": "refers to: Sedation", "system": "genotyped patients, CYP2D6 poor metabolizers", "conditions": "dose not given, long-acting oral or depot", "measurement": "adverse event incidence", "result": "5.3%"}
